Results from different studies.
Lines come from different studies, so protocols differ. Several values in a cell are separate wells, animals, samples, runs or records. ± marks the error that the study gave.

CCCC[C@H](NC(=O)COCCOCCNC(=O)CN1CCN(CC(=O)O)CCN(CC(=O)O)CC1)C(=O)N[C@H]1CC(=O)NCCCC[C@@H](C(N)=O)NC(=O)[C@H](Cc2c[nH]c3ccccc23)NC(=O)[C@H](CCCNC(=N)N)NC(=O)[C@@H](Cc2ccccc2)NC(=O)[C@H](Cc2c[nH]cn2)NC1=O [fluorine-18 labelled] has a tissue uptake of 0.47 ± 0.18 %ID/g (C57 mice, B16/F10 melanoma, muscle; intravenous, 1 h, with: NDP-MSH 10 µg).
For Cc1cc(C)n(CCN(CCN)CCCCCCNC(=O)[C@@H](N)Cc2c[nH]c3ccccc23)n1.[99Tc+].[C-]#[O+].[C-]#[O+].[C-]#[O+], the tissue uptake was 12 ± 1.96 %IA/g (BALB/c nude mice, A549 xenograft, intestine; intravenous, 4 h).
The tissue uptake of COc1ccc(Nc2nc(Nc3ccc(OCCOCCOCC[18F])cc3)ncc2Br)cc1 is reported as 1.25 ± 0.11 %ID/g (ICR mice, S180 tumour-bearing, spleen; intravenous, 370 kBq, 60 min).
The tissue uptake of CCCC[C@H](NC(=O)CCCCCCCNC(=O)CN1CCN(CC(=O)O)CCN(CC(=O)O)CC1)C(=O)N[C@H]1CC(=O)NCCCC[C@@H](C(N)=O)NC(=O)[C@H](Cc2c[nH]c3ccccc23)NC(=O)[C@H](CCCNC(=N)N)NC(=O)[C@@H](Cc2ccccc2)NC(=O)[C@H](Cc2c[nH]cn2)NC1=O [fluorine-18 labelled] is reported as 0.91 ± 0.67 %ID/g (C57 mice B16-F10 melanoma, bone; intravenous, 0.37 MBq, 1 h).
The tissue uptake of N#C[C@@H]1CCCN1C(=O)CNC(=O)c1ccnc2ccc(OCCCN3CCN(C(=O)CCc4ccc(O)c(CN5CCN6CC(=O)[O][Al-]([18F])([O]C(=O)C5)[O]c5ccc(CCC(=O)N7CCN(CCCOc8ccc9nccc(C(=O)NCC(=O)N%10CCC[C@H]%10C#N)c9c8)CC7)cc5C6)c4)CC3)cc12 (stereo partly drawn) is reported as 0.17 ± 0.02 %ID/g (BALB/c nude mice, U-87 MG xenograft, brain; 1 h, blocking, with: DOTA-FAPI-04 40 nmol/mouse co-injected).
With O=C(O)CCCOc1ccc([18F])cc1-c1cc(-c2ccccc2C(F)(F)F)n(-c2ccccc2)n1 the tissue uptake was 0.46 ± 0.09 %ID/g (mice, large intestine; intravenous, 15 min).
COc1ccc(Nc2nc(Nc3ccc(OCCOCC[18F])cc3)ncc2Br)cc1 gave a tissue uptake of 2.66 ± 0.09 %ID (ICR mice, S180 tumour, intestine; intravenous, 370 kBq, 15 min).
The tissue uptake of N#C[C@@H]1CCCN1C(=O)CNC(=O)c1ccnc2ccc(OCCCN3CCN(C(=O)CCc4ccc5c(c4)CN4CCN(Cc6cc(CCC(=O)O)ccc6O)CC(=O)[O][Al-]([18F])([O]C(=O)C4)[O]5)CC3)cc12 (stereo partly drawn) is reported as 1.74 ± 0.57 %ID/g (BALB/c nude mice, U-87 MG xenograft, kidney; 1 h).
For O=C(NCC1OC2CCC=CCCC2O1)c1ccc([18F])nc1 (stereo not drawn), the tissue uptake was 0.9 ± 0.2 %ID/g (healthy female BALB/c nude mice, liver; intravenous, 7.4 MBq per mouse, 120 min).
For CCCC[C@H](NC(=O)CNC(=O)CNC(=O)[C@H](CCCCNC(=O)[C@H](CC(=O)O)NC(=O)C(C)c1ccc(CC(C)C)cc1)NC(=O)CN1CCN(CC(=O)O)CCN(CC(=O)O)CCN(CC(=O)O)CC1)C(=O)N[C@H]1CC(=O)NCCCC[C@@H](C(N)=O)NC(=O)[C@H](Cc2c[nH]c3ccccc23)NC(=O)[C@H](CCCNC(=N)N)NC(=O)[C@@H](Cc2ccccc2)NC(=O)[C@H](Cc2c[nH]cn2)NC1=O (stereo partly drawn) [lutetium-177 labelled], the tissue uptake was 11.3 ± 1.97 %ID/g (C57 mice, tumour-bearing, kidneys; 2 h).
The tissue uptake of COc1ccc2c(c1)C(C)(C)C(/C=C/C1=C(Oc3ccc(C(=O)NCCCCOc4cc(CN(Cc5ccccn5)Cc5ccccn5)cc(CN(Cc5ccccn5)Cc5ccccn5)c4)cc3)C(=C/C=C3/N(CCCCS(=O)(=O)[O-])c4ccc(OC)cc4C3(C)C)CCC1)=[N+]2CCCCS(=O)(=O)[O-].O=[N+]([O-])[O-].O=[N+]([O-])[O-].[99Tc+].[C-]#[O+].[C-]#[O+].[C-]#[O+].[Zn+2] is reported as 0.98 %ID/g and 1.19 %ID/g and 1.27 %ID/g and 1.11 %ID/g (BALB/c mice, healthy, thyroid and trachea; intravenous, 0.74 MBq, 12 h post-injection).
For CC(C)C[C@H](NC(=O)[C@@H](CCCCNC(=O)[C@@H](Cc1ccccc1)NC(=O)CCCCCCCNC(=O)CN1CCN(CC(=O)O)CCN(CC(=O)O)CCN(CC(=O)O)CC1)NC(=O)[C@H](Cc1ccc(O)cc1)NC(=O)[C@H](CO)NC(=O)[C@H](Cc1c[nH]c2ccccc12)NC(=O)[C@H](Cc1c[nH]cn1)NC(=O)[C@@H]1CCC(=O)N1)C(=O)N[C@@H](CCCNC(=N)N)C(=O)N1CCC[C@H]1C(=O)NCC(N)=O [indium-111 labelled], the tissue uptake was 0.32 ± 0.03 %ID/g (biodistribution; male athymic nude mice, DU-145 prostate cancer xenograft, tumor; intravenous, 0.037 MBq, 4 h post-injection).
The tissue uptake of O=C(NCC1OC2CCC=CCCC2O1)c1ccc(COCCOCCOCC[18F])cc1 (stereo not drawn) is reported as 1.8 ± 0.1 %ID/g (healthy female BALB/c nude mice, skin; intravenous, 7.4 MBq per mouse, 120 min).
The tissue uptake of O=C([O-])CN1CCN(CC(=O)[O-])CCN(CC(=O)NC[C@H]2CC[C@H](C(=O)N[C@H](Cc3cnc4ccccc4c3)C(=O)NCCCC[C@H](NC(=O)N[C@@H](CCC(=O)O)C(=O)O)C(=O)O)CC2)CCN(CC(=O)[O-])CC1.[64Cu+2] is reported as 7.33 %ID/g (ex vivo gamma counting; 22Rv1 tumour-bearing mice, lung; intravenous, 0.74 MBq, 1 h post-injection).
The tissue uptake of Cc1cc(C)n(CCN(CCN)CCCCCCNC(=O)[C@@H](N)Cc2c[nH]cn2)n1.[99Tc+].[C-]#[O+].[C-]#[O+].[C-]#[O+] is reported as 0.78 ± 0.25 %IA/g (BALB/c nude mice, A549 xenograft, stomach; intravenous, 4 h).

Some of these lines once more:
The tissue uptake of COc1ccc2c(c1)C(C)(C)C(/C=C/C1=C(Oc3ccc(C(=O)NCCCCOc4cc(CN(Cc5ccccn5)Cc5ccccn5)cc(CN(Cc5ccccn5)Cc5ccccn5)c4)cc3)C(=C/C=C3/N(CCCCS(=O)(=O)[O-])c4ccc(OC)cc4C3(C)C)CCC1)=[N+]2CCCCS(=O)(=O)[O-].O=[N+]([O-])[O-].O=[N+]([O-])[O-].[99Tc+].[C-]#[O+].[C-]#[O+].[C-]#[O+].[Zn+2] is reported as 0.98 %ID/g and 1.19 %ID/g and 1.27 %ID/g and 1.11 %ID/g (BALB/c mice, healthy, thyroid and trachea; intravenous, 0.74 MBq, 12 h post-injection).
The tissue uptake of O=C([O-])CN1CCN(CC(=O)[O-])CCN(CC(=O)NC[C@H]2CC[C@H](C(=O)N[C@H](Cc3cnc4ccccc4c3)C(=O)NCCCC[C@H](NC(=O)N[C@@H](CCC(=O)O)C(=O)O)C(=O)O)CC2)CCN(CC(=O)[O-])CC1.[64Cu+2] is reported as 7.33 %ID/g (ex vivo gamma counting; 22Rv1 tumour-bearing mice, lung; intravenous, 0.74 MBq, 1 h post-injection).
